Measurements pooled from the literature.
Parts stem from different laboratories: compare values within a part only. Changes are numbered by the printed parent chain.
Sequence of UniProt O75385 (whole entry, looked up): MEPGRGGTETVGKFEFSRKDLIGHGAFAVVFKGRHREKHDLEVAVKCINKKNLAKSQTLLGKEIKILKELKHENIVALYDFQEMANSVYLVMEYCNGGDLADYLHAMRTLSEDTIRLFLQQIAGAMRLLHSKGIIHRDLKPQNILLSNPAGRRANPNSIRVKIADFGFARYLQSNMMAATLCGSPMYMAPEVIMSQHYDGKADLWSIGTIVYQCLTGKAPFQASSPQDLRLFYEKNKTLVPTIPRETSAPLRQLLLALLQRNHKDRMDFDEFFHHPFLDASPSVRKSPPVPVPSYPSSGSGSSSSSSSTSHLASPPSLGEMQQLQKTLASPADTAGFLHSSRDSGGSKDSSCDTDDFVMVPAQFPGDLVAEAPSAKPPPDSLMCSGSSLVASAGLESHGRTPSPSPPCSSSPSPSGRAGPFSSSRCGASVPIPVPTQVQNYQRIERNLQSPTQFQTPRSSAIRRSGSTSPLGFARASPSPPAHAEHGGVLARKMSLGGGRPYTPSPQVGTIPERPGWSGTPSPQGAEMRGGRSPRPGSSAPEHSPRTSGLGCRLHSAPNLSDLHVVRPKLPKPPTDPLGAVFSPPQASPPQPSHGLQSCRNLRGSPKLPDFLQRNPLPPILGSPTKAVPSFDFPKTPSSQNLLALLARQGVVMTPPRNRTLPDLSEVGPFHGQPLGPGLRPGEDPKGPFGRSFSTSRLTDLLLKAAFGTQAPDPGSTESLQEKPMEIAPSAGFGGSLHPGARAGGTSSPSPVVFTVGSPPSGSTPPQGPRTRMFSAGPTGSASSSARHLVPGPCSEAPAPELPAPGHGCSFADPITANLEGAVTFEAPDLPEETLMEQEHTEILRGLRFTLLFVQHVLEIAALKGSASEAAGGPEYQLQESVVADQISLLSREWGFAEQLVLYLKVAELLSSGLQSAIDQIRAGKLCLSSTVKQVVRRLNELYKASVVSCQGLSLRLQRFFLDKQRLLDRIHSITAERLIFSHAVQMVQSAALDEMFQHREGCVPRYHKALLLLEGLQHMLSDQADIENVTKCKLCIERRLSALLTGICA
Sequence of UniProt Q99640 (whole entry, looked up): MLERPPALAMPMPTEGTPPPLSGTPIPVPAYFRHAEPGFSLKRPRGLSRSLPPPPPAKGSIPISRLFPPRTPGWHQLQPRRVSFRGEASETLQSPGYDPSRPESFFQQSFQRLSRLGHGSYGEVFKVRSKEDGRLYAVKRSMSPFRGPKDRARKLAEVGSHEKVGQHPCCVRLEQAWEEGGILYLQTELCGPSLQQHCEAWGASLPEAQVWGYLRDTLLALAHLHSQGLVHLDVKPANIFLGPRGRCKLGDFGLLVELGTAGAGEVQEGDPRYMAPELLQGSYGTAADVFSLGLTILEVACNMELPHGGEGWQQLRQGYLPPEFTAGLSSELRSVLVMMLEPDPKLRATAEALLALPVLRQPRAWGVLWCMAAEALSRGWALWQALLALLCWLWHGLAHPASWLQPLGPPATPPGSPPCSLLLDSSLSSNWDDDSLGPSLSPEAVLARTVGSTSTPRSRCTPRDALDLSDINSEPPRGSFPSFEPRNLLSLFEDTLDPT
Sequence of UniProt P36897 (whole entry, looked up): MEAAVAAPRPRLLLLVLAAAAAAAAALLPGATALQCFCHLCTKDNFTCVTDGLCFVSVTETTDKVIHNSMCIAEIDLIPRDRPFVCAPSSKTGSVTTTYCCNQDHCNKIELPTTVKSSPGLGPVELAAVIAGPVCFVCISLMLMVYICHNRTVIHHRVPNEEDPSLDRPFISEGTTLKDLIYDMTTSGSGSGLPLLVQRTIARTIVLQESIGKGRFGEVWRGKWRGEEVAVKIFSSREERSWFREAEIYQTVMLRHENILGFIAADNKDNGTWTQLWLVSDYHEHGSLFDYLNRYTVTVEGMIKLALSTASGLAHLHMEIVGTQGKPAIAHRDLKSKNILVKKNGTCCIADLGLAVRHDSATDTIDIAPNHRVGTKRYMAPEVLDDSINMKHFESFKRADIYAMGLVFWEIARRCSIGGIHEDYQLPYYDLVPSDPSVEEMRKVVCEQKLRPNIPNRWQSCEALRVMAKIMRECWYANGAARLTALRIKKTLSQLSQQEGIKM
Sequence of UniProt O00141 (whole entry, looked up): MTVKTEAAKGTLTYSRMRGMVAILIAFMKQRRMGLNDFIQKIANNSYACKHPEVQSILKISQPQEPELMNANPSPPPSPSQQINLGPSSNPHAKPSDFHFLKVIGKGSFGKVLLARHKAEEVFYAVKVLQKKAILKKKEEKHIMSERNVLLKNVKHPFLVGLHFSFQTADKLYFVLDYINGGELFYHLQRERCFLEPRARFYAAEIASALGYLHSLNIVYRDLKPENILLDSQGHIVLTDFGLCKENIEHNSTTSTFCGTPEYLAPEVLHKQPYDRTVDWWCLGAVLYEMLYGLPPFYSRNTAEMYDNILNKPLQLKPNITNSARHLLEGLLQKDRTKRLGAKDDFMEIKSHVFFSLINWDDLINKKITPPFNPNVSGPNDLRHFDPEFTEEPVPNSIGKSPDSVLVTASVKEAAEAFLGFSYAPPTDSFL

Block 1
Compound: Cn1cncc1[C@](O)(COc1ccc(C#N)cc1-c1ccc(OC(F)(F)F)cc1)c1ccc(C#N)cc1
Technique: competition with immobilised ligand
Tested at: 1 µM
Measurement: remaining binding
Calcium/calmodulin-dependent protein kinase type II subunit gamma (CAMK2G, Homo sapiens, UniProt Q13555); cell-free assay: 94%
Tyrosine-protein kinase ABL1, phosphorylated (ABL1, Homo sapiens, UniProt P00519, Q252H); cell-free assay: 100%
TGF-beta receptor type-1 (TGFBR1, Homo sapiens, UniProt P36897); cell-free assay: 81%
Bone morphogenetic protein receptor type-1A (BMPR1A, Homo sapiens, UniProt P36894); binding: 91%
Serine/threonine-protein kinase pim-1 (PIM1, Homo sapiens, UniProt P11309); cell-free assay: 96%
Serine/threonine-protein kinase ULK1 (ULK1, Homo sapiens, UniProt O75385); cell-free assay: 100%
Serine/threonine-protein kinase B-raf (BRAF, Homo sapiens, UniProt P15056, V600E); cell-free assay: 82%
Protein kinase C theta type (PRKCQ, Homo sapiens, UniProt Q04759); cell-free assay: 79%
Mast/stem cell growth factor receptor Kit (KIT, Homo sapiens, UniProt P10721, V559D); cell-free assay: 100%
Phosphatidylinositol 3-kinase C2 domain-containing subunit gamma (PIK3C2G, Homo sapiens, UniProt O75747); cell-free assay: 81%
Membrane-associated tyrosine- and threonine-specific cdc2-inhibitory kinase (PKMYT1, Homo sapiens, UniProt Q99640); cell-free assay: 100%
Non-receptor tyrosine-protein kinase TNK1 (TNK1, Homo sapiens, UniProt Q13470); cell-free assay: 56%
cAMP-dependent protein kinase catalytic subunit beta (PRKACB, Homo sapiens, UniProt P22694); cell-free assay: 93%
Serine/threonine-protein kinase ICK (CILK1, Homo sapiens, UniProt Q9UPZ9); binding: 100%
Cyclin-dependent kinase-like 3 (CDKL3, Homo sapiens, UniProt Q8IVW4); cell-free assay: 87%
cAMP-dependent protein kinase catalytic subunit alpha (PRKACA, Homo sapiens, UniProt P17612); cell-free assay: 81%
Hepatocyte growth factor receptor (MET, Homo sapiens, UniProt P08581); cell-free assay: 74%
Serine/threonine-protein kinase Sgk1 (SGK1, Homo sapiens, UniProt O00141); cell-free assay: 76%

Block 2
Target: CCNE1, cyclin fold, Cln2 fusion (human)
Technique: yeast growth competition, sequencing
Medium: yeast
Setting: strong parent motif
Baseline: not given
Direction: higher = stronger binding
Measurement: normalised enrichment score
Starting sequence: viral docking peptide; CKVKRKLFGSENI
K6A: 3.05
V3A: 5.08
I13A: 5.52
S10A: 4.85
L7A: 1.05

Block 3
Target: HLA class I histocompatibility antigen, C alpha chain, allele C*04:01 (Homo sapiens, UniProt P10321)
Observed: peptide-MHC binding
Molecule type: peptide
Tested at: concentration not given
Measurement: binding
MYTRNLLWL: inactive
MTMLTRWKI: inactive
TTFDLTLRR: inactive
VMPPRTLLL: inactive
KPIPHRTVL: inactive
FMYEGDTPL: inactive
ATYGWNLVK: inactive
STEFIPNLF: inactive

Other studies, line by line
POLQ ATPase domain: DNA polymerase theta, ATPase domain (POLQ, Homo sapiens, UniProt O75417)
Sequence of UniProt O75417 (whole entry, unmodified, looked up): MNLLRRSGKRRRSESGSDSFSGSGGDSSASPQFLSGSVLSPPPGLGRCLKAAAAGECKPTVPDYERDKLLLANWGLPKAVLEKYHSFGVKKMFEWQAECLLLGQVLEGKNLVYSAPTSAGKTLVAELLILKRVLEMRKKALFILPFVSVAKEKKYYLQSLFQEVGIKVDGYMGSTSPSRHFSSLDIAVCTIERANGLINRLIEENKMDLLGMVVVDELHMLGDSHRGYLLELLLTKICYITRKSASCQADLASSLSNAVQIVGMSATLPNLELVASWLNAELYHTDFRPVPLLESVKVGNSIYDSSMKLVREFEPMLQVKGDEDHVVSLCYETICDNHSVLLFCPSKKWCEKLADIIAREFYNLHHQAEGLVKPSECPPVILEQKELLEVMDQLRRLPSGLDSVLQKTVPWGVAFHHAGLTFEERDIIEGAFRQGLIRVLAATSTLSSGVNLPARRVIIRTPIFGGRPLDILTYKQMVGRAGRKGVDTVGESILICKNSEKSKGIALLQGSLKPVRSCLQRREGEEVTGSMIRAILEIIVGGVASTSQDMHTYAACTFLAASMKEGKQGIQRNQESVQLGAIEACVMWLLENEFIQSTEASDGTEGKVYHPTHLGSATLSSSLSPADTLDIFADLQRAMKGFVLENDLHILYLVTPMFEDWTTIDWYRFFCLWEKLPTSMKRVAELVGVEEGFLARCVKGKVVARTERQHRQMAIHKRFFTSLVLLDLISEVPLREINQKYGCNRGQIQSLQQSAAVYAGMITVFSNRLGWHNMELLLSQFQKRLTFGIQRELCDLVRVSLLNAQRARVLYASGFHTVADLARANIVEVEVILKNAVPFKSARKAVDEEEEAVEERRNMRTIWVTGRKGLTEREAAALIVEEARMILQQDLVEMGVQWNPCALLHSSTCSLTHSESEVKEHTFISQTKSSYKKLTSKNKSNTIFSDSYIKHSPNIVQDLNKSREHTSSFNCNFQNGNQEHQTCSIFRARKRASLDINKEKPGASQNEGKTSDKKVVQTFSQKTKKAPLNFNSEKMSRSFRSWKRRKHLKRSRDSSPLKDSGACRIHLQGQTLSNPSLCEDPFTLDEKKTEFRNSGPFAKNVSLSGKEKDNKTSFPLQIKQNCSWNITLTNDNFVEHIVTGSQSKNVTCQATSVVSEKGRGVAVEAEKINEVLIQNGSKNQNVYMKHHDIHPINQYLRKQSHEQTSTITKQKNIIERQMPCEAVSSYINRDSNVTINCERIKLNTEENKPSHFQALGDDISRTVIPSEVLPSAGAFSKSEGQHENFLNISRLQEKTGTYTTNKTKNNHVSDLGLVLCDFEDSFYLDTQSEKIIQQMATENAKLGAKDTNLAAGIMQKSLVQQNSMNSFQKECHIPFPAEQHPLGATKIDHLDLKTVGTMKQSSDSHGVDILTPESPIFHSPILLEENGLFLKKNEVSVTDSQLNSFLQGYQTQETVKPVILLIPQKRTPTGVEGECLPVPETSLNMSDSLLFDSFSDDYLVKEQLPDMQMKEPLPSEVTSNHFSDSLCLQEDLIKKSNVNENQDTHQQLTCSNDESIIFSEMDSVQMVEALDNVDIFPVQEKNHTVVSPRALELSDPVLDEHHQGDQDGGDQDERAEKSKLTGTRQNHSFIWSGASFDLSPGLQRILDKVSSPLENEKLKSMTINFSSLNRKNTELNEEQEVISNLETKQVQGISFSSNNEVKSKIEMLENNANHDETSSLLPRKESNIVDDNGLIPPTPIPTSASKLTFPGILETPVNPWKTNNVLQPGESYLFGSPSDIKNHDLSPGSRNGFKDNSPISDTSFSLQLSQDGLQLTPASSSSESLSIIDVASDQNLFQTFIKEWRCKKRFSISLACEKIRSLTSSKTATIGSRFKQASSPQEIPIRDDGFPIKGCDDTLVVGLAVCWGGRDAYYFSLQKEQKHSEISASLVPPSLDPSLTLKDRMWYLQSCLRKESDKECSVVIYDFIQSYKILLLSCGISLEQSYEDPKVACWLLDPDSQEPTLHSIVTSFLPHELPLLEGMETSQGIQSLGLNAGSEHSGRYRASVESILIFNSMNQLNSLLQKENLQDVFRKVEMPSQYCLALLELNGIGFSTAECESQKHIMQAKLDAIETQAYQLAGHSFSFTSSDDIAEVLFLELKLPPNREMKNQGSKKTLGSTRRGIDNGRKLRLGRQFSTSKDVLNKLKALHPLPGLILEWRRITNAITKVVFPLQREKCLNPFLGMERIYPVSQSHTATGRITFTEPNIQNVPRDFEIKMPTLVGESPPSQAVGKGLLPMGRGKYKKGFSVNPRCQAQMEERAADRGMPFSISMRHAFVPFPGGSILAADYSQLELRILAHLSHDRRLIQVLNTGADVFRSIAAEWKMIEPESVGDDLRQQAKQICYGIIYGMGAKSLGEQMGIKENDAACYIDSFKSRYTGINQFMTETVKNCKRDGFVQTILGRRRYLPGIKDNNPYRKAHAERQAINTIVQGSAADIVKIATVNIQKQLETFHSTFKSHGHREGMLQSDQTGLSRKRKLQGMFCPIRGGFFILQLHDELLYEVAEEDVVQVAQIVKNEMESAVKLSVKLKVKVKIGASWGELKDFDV
C=C(C)[C@H]1CN[C@H](C(=O)O)[C@H]1CC(=O)O
remaining activity (POLQ ATPase domain; enzyme activity, inhibitor; 77 µM; baseline: untreated): 107%

CCOC(=O)c1cncn1[C@H](C)c1ccccc1
viability (HaCaT; 100 µM, 60 h): 125%

CC[C@H](C)C[C@H](C)CCCCCCCCC(=O)N[C@H]1C[C@@H](O)[C@@H](NCCN)NC(=O)[C@@H]2[C@@H](O)CCN2C(=O)[C@H]([C@H](O)CCN)NC(=O)[C@H]([C@H](O)[C@@H](O)c2ccc(O)cc2)NC(=O)[C@@H]2C[C@@H](O)CN2C(=O)[C@H]([C@@H](C)O)NC1=O
remaining activity (POLQ ATPase domain; enzyme activity, inhibitor; 77 µM; baseline: untreated): 96.3%

Cc1cc(=O)[nH]c(=O)[nH]1
inhibition (Calcium/calmodulin-dependent protein kinase type II subunit alpha (CAMK2A, Homo sapiens, UniProt Q9UQM7); enzyme activity, inhibitor; 10 µM): -24%

FC(F)(F)c1cccc(N2CCNCC2)c1
inhibition (Sarcocystis neurona; parasite growth; 10 µM, 96 h): -15.4%

Repeated from above (block 1):
TGF-beta receptor type-1 (TGFBR1, Homo sapiens, UniProt P36897); cell-free assay: 81%
Non-receptor tyrosine-protein kinase TNK1 (TNK1, Homo sapiens, UniProt Q13470); cell-free assay: 56%
Bone morphogenetic protein receptor type-1A (BMPR1A, Homo sapiens, UniProt P36894); binding: 91%
Hepatocyte growth factor receptor (MET, Homo sapiens, UniProt P08581); cell-free assay: 74%
